Experimental data gathered from unrelated publications.
Every numbered part comes from another study and shows a few of its results, in no order. Several values in a cell are separate wells, animals, samples, runs or records.
UniProt Q9NWZ3, sequence (whole entry, looked up): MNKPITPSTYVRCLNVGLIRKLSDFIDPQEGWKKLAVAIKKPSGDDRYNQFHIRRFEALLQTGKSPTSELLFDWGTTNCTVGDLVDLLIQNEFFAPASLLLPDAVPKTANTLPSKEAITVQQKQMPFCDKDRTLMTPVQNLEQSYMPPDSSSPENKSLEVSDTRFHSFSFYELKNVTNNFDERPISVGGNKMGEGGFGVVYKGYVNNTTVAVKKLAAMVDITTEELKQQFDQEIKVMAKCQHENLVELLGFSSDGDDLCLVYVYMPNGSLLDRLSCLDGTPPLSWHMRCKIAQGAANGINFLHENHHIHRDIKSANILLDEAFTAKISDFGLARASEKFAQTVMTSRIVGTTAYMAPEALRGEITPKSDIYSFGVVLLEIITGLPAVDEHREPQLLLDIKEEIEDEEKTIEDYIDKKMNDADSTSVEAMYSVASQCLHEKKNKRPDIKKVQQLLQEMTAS
UniProt P61075, sequence (whole entry, looked up): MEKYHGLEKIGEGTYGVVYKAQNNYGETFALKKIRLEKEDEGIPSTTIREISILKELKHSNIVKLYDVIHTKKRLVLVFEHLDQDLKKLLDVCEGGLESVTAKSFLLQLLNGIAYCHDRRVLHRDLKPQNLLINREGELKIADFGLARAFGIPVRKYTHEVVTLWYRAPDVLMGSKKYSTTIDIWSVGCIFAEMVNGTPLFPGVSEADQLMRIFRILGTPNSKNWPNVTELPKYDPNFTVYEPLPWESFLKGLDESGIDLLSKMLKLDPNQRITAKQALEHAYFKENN
UniProt P9WI81, sequence (whole entry, looked up): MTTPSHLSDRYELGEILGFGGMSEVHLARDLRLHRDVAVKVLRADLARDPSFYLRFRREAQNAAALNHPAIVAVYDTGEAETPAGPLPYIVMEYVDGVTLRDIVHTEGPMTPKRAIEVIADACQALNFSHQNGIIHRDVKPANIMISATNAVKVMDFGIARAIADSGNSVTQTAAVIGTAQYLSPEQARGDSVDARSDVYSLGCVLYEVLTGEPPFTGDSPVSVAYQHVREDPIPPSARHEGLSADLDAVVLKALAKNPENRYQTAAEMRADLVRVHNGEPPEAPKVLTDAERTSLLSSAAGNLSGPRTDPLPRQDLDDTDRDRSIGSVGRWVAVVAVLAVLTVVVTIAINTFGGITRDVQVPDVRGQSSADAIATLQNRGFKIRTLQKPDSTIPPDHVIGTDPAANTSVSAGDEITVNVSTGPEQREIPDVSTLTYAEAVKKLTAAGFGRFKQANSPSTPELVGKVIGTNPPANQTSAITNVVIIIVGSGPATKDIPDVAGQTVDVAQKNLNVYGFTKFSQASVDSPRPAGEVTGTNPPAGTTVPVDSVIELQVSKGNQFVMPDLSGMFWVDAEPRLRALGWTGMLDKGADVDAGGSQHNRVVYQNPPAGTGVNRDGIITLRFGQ
UniProt P08908, sequence (whole entry, looked up): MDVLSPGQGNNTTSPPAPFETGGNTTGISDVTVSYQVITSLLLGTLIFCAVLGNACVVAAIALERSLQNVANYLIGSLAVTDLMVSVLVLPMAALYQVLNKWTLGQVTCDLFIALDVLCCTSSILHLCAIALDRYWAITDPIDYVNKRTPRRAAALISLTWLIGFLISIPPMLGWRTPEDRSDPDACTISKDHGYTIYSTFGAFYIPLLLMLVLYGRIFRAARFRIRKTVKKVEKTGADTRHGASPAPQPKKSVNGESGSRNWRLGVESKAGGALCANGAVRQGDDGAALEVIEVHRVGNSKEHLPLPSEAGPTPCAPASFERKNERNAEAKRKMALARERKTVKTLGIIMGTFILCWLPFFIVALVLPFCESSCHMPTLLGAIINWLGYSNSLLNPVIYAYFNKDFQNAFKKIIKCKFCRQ
UniProt D3Z7P3, sequence (whole entry, looked up): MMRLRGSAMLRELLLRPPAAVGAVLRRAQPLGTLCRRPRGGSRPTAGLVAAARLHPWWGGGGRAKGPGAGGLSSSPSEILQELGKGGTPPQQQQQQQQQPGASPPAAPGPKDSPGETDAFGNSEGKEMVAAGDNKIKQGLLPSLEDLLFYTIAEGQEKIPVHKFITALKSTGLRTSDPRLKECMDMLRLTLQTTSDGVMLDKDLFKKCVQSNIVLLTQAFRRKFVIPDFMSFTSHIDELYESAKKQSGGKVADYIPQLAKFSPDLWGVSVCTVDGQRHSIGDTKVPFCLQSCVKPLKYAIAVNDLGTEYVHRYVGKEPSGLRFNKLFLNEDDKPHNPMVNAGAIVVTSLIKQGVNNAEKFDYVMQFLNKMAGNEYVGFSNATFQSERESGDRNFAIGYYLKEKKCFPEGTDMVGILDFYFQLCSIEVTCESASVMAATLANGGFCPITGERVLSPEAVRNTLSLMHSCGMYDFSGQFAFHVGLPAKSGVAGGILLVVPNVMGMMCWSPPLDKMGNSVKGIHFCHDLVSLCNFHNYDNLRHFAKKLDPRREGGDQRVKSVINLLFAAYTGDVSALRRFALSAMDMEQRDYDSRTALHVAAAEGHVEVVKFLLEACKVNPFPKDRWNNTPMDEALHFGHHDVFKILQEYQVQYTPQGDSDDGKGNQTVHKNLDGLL

Series 1
Cell line: HEK-293T-ACE2-TMPRSS2
Method: cell count
Tested at: concentration not given
`Cc1oc2ncnc(N3CCC(C(=O)NCc4cccs4)CC3)c2c1C` gave a viability of 74%.
`Cn1cc(C(=O)O/N=C(\N)c2ccc(C(C)(C)C)cc2)c(C(F)(F)F)n1` has a viability of 71%.
With `Cc1ccc(NC2CCCN(C(=O)c3cc(=O)c4ccccc4o3)C2)cc1C` (stereo not shown) the viability was 112%.
`NC(=O)C1(N2CCCCC2)CCN(c2ncnc3sc4c(c23)CCNC4)CC1` has a viability of 95%.
`CNS(=O)(=O)CCNCC1(O)CCCN(Cc2cccc(C)c2)C1=O` (stereo not shown) has a viability of 102%.
`CCOC(=O)C1(Cc2ccccc2C(F)(F)F)CCN(C(=O)Cc2nonc2C)CC1` has a viability of 107%.

Further values, each from its own experiment
Diamine acetyltransferase 1: Diamine acetyltransferase 1 (Homo sapiens, UniProt P21673)
UniProt P21673, sequence (whole entry, looked up): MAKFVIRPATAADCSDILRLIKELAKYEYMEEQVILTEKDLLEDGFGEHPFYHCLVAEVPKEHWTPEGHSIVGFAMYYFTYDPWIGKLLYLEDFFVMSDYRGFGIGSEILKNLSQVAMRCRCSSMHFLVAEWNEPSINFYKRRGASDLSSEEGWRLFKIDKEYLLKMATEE
The remaining binding of `Cc1c(NC(=O)c2cc(C(N)=O)nc3cc(F)ccc23)c(C(F)(F)F)nn1Cc1ccc(C(C)(C)C)cc1` is reported as 100% (CRK2 (Plasmodium falciparum, UniProt P61075); cell-free assay, competition with immobilised ligand; 1 µM).
`O=c1ccc2ccc3occc3c2o1` gave a remaining activity of 103% (Diamine acetyltransferase 1; inhibitor; 10 µM; reference: control).
`CN(C)[C@H]1CCN(c2cc(-c3ccccc3)nc3ccnn23)C1` gave an inhibition of 19.3% (HTR1A (Homo sapiens, UniProt P08908); cell-free assay; 10 µM).
For `[N-]=[N+]=CC(=O)CC[C@H](N)C(=O)O`, the enzyme activity was 454 fmol/mg/h (Glutaminase kidney isoform, mitochondrial (Mus musculus, UniProt D3Z7P3); C57BL/6 CES1-/- mouse, EL4 tumour, tumour; subcutaneous, dose not given).
With `CN(C)c1ncnc(-c2ccc3nc(Nc4cc(CN5CCN(C(=O)CC(F)(F)F)CC5)ccn4)[nH]c3c2)c1Cl` the remaining binding was 100% (pknB (Mycobacterium tuberculosis, UniProt P9WI81); cell-free assay, competition with immobilised ligand; 1 µM).
With `COc1ccc(C=O)cc1` the remaining activity was 86.1% (Diamine acetyltransferase 1; inhibitor; 10 µM; reference: control).
The EC50 of `CC(C)(O)[C@H](F)CN1Cc2cc(NC(=O)c3cnn4cccnc34)c(N3CCOCC3)cc2C1=O` is reported as 3.05 nM and 3.56 nM (IRAK4 (Homo sapiens, UniProt Q9NWZ3); target engagement, NanoBRET; live cells).

A few entries again (series 1):
`Cc1oc2ncnc(N3CCC(C(=O)NCc4cccs4)CC3)c2c1C` gave a viability of 74%.
`Cn1cc(C(=O)O/N=C(\N)c2ccc(C(C)(C)C)cc2)c(C(F)(F)F)n1` has a viability of 71%.
